Measurements pooled from the literature.
Numbered parts are unrelated; each lists some results of a single study.

Block 1
Target: RNA binding protein fox-1 homolog 2, RRM domain, GST-SBP tag (RBFOX2, Homo sapiens, UniProt O43251-10, residues 100-194)
Method: RNA Bind-n-Seq
Molecule type: RNA
Matrix: in vitro
Tested at: 365 nM
Setting: natural RNA segment, single round, ends assumed
Reference: no-protein control
Direction: higher = stronger binding
Quantity: RBNS enrichment (R)
Residues (chain): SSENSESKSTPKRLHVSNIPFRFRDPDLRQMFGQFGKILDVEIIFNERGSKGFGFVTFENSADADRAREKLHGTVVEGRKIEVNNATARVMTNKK
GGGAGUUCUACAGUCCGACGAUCAAGUCACUGGCAAUACGGGUUUAAAGCAGGUACUUAGAUCACGGUUUUCUCUGUAAGAAAAUAUGGCCGUCACCCCCGCCCACCAAAAAAAAAUGAUUUGCUCUUUGUGAUGGAAUUCUCGGGUGCCAA: 0.669
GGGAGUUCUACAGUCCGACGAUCGGGACAGGGCCUUUUCAUUAAUGAGAGAACAUGUCACAAGGAAAGCAAGAGAUAAAAACCAACAAAACCUAACCUGGUGACCACAUGUCUGUGACUCCAUGUACUCAUCCUGGAAUUCUCGGGUGCCAA: 0.348
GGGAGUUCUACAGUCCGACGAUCCAGCUCUUAGAAAUUUCUCUUCUUCUACACUUGUUGCUCUCACCAGUGAAACGCUUUGUAAGGAGGCAUCUGGGUAAUUAUGCAAAUAAGUUUGUGAUAAUUGCUCCAGUUGGAAUUCUCGGGUGCCAA: 0.273
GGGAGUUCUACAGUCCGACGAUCUUUGUUCAACACAAACUACCAUCACACCUCUGACUUGAUAUUAUCAUGAGAAUGUGGAUGUACAAGUGUAAAAACAGGAAUGUACUAUCUCUCCUGAGCAGAUUGCCUGAUGGAAUUCUCGGGUGCCAA: 0.4
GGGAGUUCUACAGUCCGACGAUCCUGAGAAAUAGAAGCUAAAGAAUAAUUAGAGCUGAAAGGCUUCCUUAUAUCAAACCAUCUAACAUUUUUCUUAGGGCUGUUAAACUAGACAUAAAAUUGAUUUAUCUUUCUGGAAUUCUCGGGUGCCAA: 0.376
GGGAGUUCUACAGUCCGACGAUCGAAGAAACAACAAAGGCAGGAGAACAGCCACUUUCAGACUUGAAAAUGACAAAACCCUCAGUUGAGCCUGAGCCCCCGGCGCGGGGGCUGCUACACUACAGGACACCCAGUGGAAUUCUCGGGUGCCAA: 0.275
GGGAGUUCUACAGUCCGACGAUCGAUUAUUUGAUAAUUGGUUAGAUCAUACUUGUAAAUUUUAAUGCUUUGUGUAAUUGGUUUGAAAAACAGUGAAAUGGGUAAACGCAAAACUUUUGUACUUUAUUACGAGUUGGAAUUCUCGGGUGCCAA: 0.852
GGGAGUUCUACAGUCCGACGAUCUUUUCUUCAGGUGUCAAUGGCGUUAGACUCCCAGGAAGACUAGCCCUGCCCACAGGGCCACCUGUUGGUUUGAGAGCGUGUUCGUGUUCUCUUGCCCUCCCUGCCUAAGAUGGAAUUCUCGGGUGCCAA: 0.272
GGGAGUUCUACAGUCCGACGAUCCAGGACAGGCGUGAAGAUGGAGUCCUUGUCGCAGCUGGAGCCUUGCCUAGCUGGUGAUCACACAGCCUGGCCUGUACCUGCACCCCACUGGAUGGUGGUACAUGGUGGCAUGGAAUUCUCGGGUGCCAA: 0.395
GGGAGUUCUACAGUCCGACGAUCUGAGAAAACAGGGGCGUUUCCUAAUUUGGUCUUUAUCCUGCGACAACACUUUCAGCAGACUAGCCUCUCCUUAUCUCACAGAUCACAAGCACCCCUAGAUAGUGUGAUUCUGGAAUUCUCGGGUGCCAA: 0.326
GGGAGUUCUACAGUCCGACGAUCCUCCCCCUUUCUGUGCCUGGGAACUGUUUGGUCCAGCUUUAGAACUGUGGUUUUGACUUCCUUAUCUCUUGGGAGAAGCUUCUGUUUUAAGGAAUUUCUCUUCCUUCUUCUGGAAUUCUCGGGUGCCAA: 0.637
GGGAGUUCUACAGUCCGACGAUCGUUGAUUUCUAGGAGCAGCACUGAGCAGCUGGCCAUUGCUAGCACACACCCUUUCCCUCACCUGUACUAGAGCUUGGCUUGAGGAAGGAAUGAAGGAGCAGCCUUCUGUUUGGAAUUCUCGGGUGCCAA: 0.652

Block 2
Target: Prothrombin, mature alpha-thrombin (F2, Homo sapiens, UniProt P00734)
Method: aptamer microarray, sandwich
Molecule type: DNA with 2'F-ANA
Matrix: in vitro
Tested at: 200 nM
Setting: whole 15-mer aptamer, many near background
Together with: Cy3 exosite-II aptamer, 400 nM
Direction: higher = stronger binding
Quantity: mean fluorescence intensity
Oligonucleotide: GGTTGGTGTGGTTGG
2'F-ANA at 1 2 3 5 6 9 11 13 14 15: 47.9 a.u.
2'F-ANA at 1 3 4 5 6 9 13: 141 a.u.
2'F-ANA at 1 4 5 7 8 10 13 14 15: 47.4 a.u.
2'F-ANA at 1 3 5 8 10 14: 49.4 a.u.
2'F-ANA at 1 3 4 5 8 9 10 11 13 14: 44.5 a.u.
2'F-ANA at 2 3 8 10 13 14 15: 282 a.u.
2'F-ANA at 1 5 8 9 10 11 12 13: 45.2 a.u.
2'F-ANA at 1 4 5 7 9 10 12 14 15: 50.3 a.u.
2'F-ANA at 1 2 11 12: 363 a.u.
2'F-ANA at 2 3 5 6 7 8 9 11 12 13 14 15: 55.9 a.u.
2'F-ANA at 1 4 6 7 8 10 11 12 13 14: 184 a.u.
2'F-ANA at 1 2 6 7 8 9 10 14 15: 184 a.u.
2'F-ANA at 1 2 3 4 7 9 13 14: 60 a.u.
2'F-ANA at 3 4 6 7 9 10 14: 169 a.u.
2'F-ANA at 3 4 6 7 8 9 11: 514 a.u.
2'F-ANA at 1 3 4 5 6 8 9 13: 69.6 a.u.
2'F-ANA at 1 2 5 7 8 9 10 11 12 13 14 15: 72.2 a.u.
2'F-ANA at 5 9 13 14 15: 118 a.u.
2'F-ANA at 1 2 4 6 7 9 10 15: 49.2 a.u.
2'F-ANA at 4 5 6 11 12 14 15: 60.2 a.u.
2'F-ANA at 4 5 6 8 9 11 12 13 14 15: 47.4 a.u.
2'F-ANA at 1 2 3 4 6 7 11 14 15: 61.3 a.u.
2'F-ANA at 1 3 4 5 6 8 9 11 13 15: 58.5 a.u.
2'F-ANA at 1 2 4 7 9 11 13 14 15: 56.1 a.u.

Block 3
Target: Histone acetyltransferase KAT6A, winged helix 2, GST fusion (KAT6A, Homo sapiens, UniProt Q92794, residues 85-181)
Method: protein binding microarray
Molecule type: double-stranded DNA, one strand shown
Matrix: in vitro
Tested at: not given
Setting: 8-mer, flanks averaged, mean of 2 arrays, mostly near background
Reference: not given
Direction: higher = stronger binding
Quantity: E-score
Residues (chain): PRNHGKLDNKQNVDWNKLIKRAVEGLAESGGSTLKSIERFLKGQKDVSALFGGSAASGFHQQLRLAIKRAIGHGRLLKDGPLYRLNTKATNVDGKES
TAAGTGTA: -0.201
CCGGACGG: 0.15
AACAAGTA: -0.148
ATGAGCTC: 0.0378
CATAACGC: -7.5e-05
ATGCACGC: -0.00413
CGTCCCCA: -0.048
CCAGACAG: 0.0392
ACGCACCC: -0.0356
AGGTCTCA: -0.0377
CAAAATAG: -0.101
ACAACTGT: -0.163
CACGGAAC: 0.0436
GAAACCAA: 0.00856
AAGGTTTA: -0.119
ACCTGCAC: -0.128
CAAACTCG: 0.0297
AGAGCAGA: 0.0832
CTGAGGGC: 0.00351
TCTGTTCA: -0.114
ACGCGCGG: 0.247

Block 4
Target: RING finger protein unkempt homolog, zinc fingers 1-6, GST-SBP tag (UNK, Homo sapiens, UniProt Q9C0B0, residues 30-357)
Method: RNA Bind-n-Seq
Molecule type: RNA
Matrix: in vitro
Tested at: not given
Setting: RNA with constant flanks, ends assumed
Reference: input RNA pool
Direction: higher = stronger binding
Quantity: bound/input enrichment
Target sequence (chain): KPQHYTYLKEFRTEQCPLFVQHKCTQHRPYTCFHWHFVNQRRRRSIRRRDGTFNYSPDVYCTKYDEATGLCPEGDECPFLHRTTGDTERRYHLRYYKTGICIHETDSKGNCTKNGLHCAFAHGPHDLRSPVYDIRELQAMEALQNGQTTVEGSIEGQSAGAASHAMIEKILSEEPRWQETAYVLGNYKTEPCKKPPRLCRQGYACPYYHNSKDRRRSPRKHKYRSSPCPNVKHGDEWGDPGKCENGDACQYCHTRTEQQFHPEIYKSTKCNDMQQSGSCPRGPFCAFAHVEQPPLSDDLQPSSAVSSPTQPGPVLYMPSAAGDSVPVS
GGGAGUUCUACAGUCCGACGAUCGAAUCUUCUGACAAUGAAGGUAGGCGGACAACGAGGAGAUUGCUGUCACGCAUAGCUUCCCGCAUGUCAUCUACUUUUUUUUCACGAAGAUCUAGUCAGGAUUCCUUGAAUACAAGAUCACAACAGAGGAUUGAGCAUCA: 0.085 ratio
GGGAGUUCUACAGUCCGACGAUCAUGGAUGACAAGGCUUCUGUUGGAAAAAUCAGUGUCUCUUCAGACUCAGUAUCUACUCUUAACCGUGAAGAUUUUGUCUUGGUUUCCAGGCAAGGAGAUGAGACACCAUCUACAAAUAAUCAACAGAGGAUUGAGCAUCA: 0.162 ratio
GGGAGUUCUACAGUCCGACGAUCUCUCCAGAGCAUAAAGAACUAUCUCAUUCUCCCCCAAGGGAGAAUAGCUUUGAGUCAUCUUCCGAGUUUAAAAACUCAGGCCCUGUUUCAGAAGUAAAUACUGGCUUUUCUCCUGAGGUUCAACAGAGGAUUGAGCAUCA: 0.119 ratio
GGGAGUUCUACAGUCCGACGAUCCAGAAUACCCAGGGUCUUAUUUUUGUGGUAGAUAGCAACGAUCGUGAAAGAAUUCAGGAAGCCGCAGAUGAGCUGCAGAAAAUGCUUCUGGUAGAUGAAUUGAGAGAUGCAGUGCUGCUACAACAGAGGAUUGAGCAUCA: 0.235 ratio
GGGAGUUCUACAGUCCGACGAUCCAAGUCUAACAAUAUUUCCAUUUCUGAAAGGCCAGUGAAUGUCCUGCAGAAAAUGAGGUUACCCGACCUUUCCUCCAACCCAUCAAUUGAUGAAAGCCAGCUGAGCCUUAUAGCAGAUCUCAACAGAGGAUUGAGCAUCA: 0.437 ratio
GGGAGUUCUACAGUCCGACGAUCGGUGAGAGCAUCAUGGUGGAACUUGCUGCUGGGCCUUUCGAGAAUGCUGAAAAGUUGCCAGCCGUUAUCAGGGUGCCAAAACUGAUGGGUUACUCAGUCAUGAGUGUAUGCUCCGUGCCUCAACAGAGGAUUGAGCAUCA: 0.104 ratio
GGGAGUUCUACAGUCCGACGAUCUUCUGGGGAUAUAAUUCAGGUUGAUGAAAAAACUGUAGGAGAGCCUGGUUGGCUUUAUGGCCGUUUUCAGGGAAAGUUUGGCUGGUUCCCGUGCAACUAUGUAGAAAAAGUGCUGUCAAGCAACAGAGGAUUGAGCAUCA: 0.447 ratio
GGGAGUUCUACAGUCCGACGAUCCAGAACUUACGGCCAUGCUGAAGUUGCAGUUUCAUUCAGAUGCUACCUAAAGUUUAUGUUACCCGAGUAAAAAGAUCUCACAGUGAGUUGGUUUGAUAUUUAUAUUGUGGUUCAUGUUUGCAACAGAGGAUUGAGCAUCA: 0.289 ratio
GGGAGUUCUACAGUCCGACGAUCGGAUUCAGGAACAUCAUCGCAGAUCCUGUCACCUUCAAGACCAAAUCGAGCUAUGUUGCCUCCGCUACAUUGCAAGCCUACACCUCUAUGCAUCUAUUUUUCCAAUUCAAGACAACAUCUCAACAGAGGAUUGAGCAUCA: 0.429 ratio
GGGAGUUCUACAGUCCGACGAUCCUGGUUGAUGGUGUUAAGAAAUUGUCAAUCUCUACUCCUGACAGAGGAAAAGAAGAUUCCCGUACUCCAGUUAUGAAAGAUGAGAACACCCCCAUACCACAGGACACAAGAGGCUUAUCACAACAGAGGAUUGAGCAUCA: 0.327 ratio
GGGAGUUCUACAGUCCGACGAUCCAUGAUCUUGUUACUGUGAUAUUUUAAAUAUCCACAGUACUCACUUUUUCCAAAUGAUCCCCGUAAUUGCCUAGAAAUAUCUUUCUCUUACCUGUUAUUUAUCAAUUUUUCCCAGUAUUUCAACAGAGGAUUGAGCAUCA: 3.68 ratio

For quick reference, copied from above (block 3):
ATGAGCTC: 0.0378
CATAACGC: -7.5e-05
ATGCACGC: -0.00413
CGTCCCCA: -0.048
CCAGACAG: 0.0392
